Measurements of several laboratories.
Each numbered part is a random draw from the data of one study; scales do not carry over between parts.

Set 1
Target: RNA binding protein fox-1 homolog 2, RRM domain, GST-SBP tag (RBFOX2, Homo sapiens, UniProt O43251-10, residues 100-194)
Method: RNA Bind-n-Seq
Form: RNA
Medium: in vitro
Concentration: 365 nM
Notes: natural RNA segment, single round, ends assumed
Relative to: no-protein control
Direction: higher = stronger binding
Measurement: RBNS enrichment (R)
Sequence = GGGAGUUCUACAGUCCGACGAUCCUUGUUUACAGAAGAGAAACAAACAAGCCCCACUCAGCUCAGUCACAGGAGAGAACACAGAAAGUCUUAGGAUCAUGAACUCUGAAAAAAAGAGAAACCUUAUCUUUGCUUGGAAUUCUCGGGUGCCAA; value = 0.637
Sequence = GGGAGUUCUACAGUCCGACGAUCUUGGGGUCACUCUAUCUCACAUUUUUUUUGGUUAGCAUUUUAAAAAUGCAAAGCCACAUACUUUGAAAUAUAUUAUUCCAAAUUGAGCUCCCUUCCCUUUGCACAUAUUUUGGAAUUCUCGGGUGCCAA; value = 0.898
Sequence = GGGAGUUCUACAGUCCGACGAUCUGGGUGGCGGGCUAGAGACCCUUGCCUGUGUCCGGGACCCUGGCGCCGCUCUCCCCUCCUGUGGAUCCCUCCGCACUAACAGUGUUCUCAGUGGGCAGACGCCUGGGCACUGGAAUUCUCGGGUGCCAA; value = 2.15
Sequence = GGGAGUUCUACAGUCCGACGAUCGAGUUUUGGAGUCUUGUAUGAUUAUCAGUAUUCCCCUGUCAAAAUCAAAUCUAUUCAGGUUUCUUCACUGUUGAGAACACCUAAAUGUUUUUAUUUUUGAGAAGUGGGGAUGGAAUUCUCGGGUGCCAA; value = 1.01
Sequence = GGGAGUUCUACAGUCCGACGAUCAGCCCCCAGGAAGCCUGCUCCCCUCUCUGGCCCAUGGUCCUGCUUCAUGCUUUGGGUCAGGAGGCCAAAGCUGAUGUUCAGGCCCCACCCACUCCCUACAGUCCUCAGACUGGAAUUCUCGGGUGCCAA; value = 0.369
Sequence = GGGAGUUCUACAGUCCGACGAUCCACUCAUCUGUCAAGUGGGGGCGCUUCCCUUCCAGCAUCACCUGCAGCAGACGGGCUCUCGGGAGUCGUGGGUUCCAGGCAGCUGUGUGGACCCAGGGACAGACAUUCAAUGGAAUUCUCGGGUGCCAA; value = 0.499
Sequence = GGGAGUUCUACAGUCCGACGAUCCCAACAGGCUUUAAAACGUCCCUGAACGUACAGUAUUCUAAGUUACCGUGAGCCUUCACAAACAUCAUUCUCGAGGUUUUUUGCUUUUCUCCCUGCUUCAGUCUCCAGAGUGGAAUUCUCGGGUGCCAA; value = 0.652
Sequence = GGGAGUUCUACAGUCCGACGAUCCAUGGUAGUGGGAACCAGACCAAUCACAAUGUUUUAUUGAAACAUAUUCCAUCGUUACAGGAUAGCGUUCGGUACACAGUGGCGGGUUUCUUUAGCUGCUGUGUUUAUUCUGGAAUUCUCGGGUGCCAA; value = 0.461
Sequence = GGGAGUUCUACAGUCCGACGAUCAAUUACAUCAAAGGGCAACCUGCGCUUUCUCCAAUAAGUCUGAGUGGUUCUCUUGAGCUGGUGUCACUUUCUAACCUUUGCCAGUCUAGCCCCAGCAGGGCACCGUGUGUUGGAAUUCUCGGGUGCCAA; value = 0.49
Sequence = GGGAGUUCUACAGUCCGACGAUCGGUGGAUGCUGUGCUACGUGUGAAAUCUGUCUUUGCCAGGCCUGUCUCAGUGAUUAGCUUUUGGUAUGUCUGUAGCUUUCCUUGAAGUUGAAUAAAUGUUUCCCCCACUCUGGAAUUCUCGGGUGCCAA; value = 0.579
Sequence = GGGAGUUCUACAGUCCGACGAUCAACACCAGCUGCUAUCAAGCAAGCUUAUAUCAUGUAAAUUAUAUGAAUUAGGAGAUGUUUUGGUAAUUAUUUCAUAUAUUGUUGUUUAUUGAGAAAAGGUUGUAGGAUGUUGGAAUUCUCGGGUGCCAA; value = 0.706
Sequence = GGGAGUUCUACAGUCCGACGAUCAUCACCCUAGGUGUGCACCAGACUCCUAUUAGCCCCUCCUUCCAGGAGCUAGAACCAGGGAGGUCCUGAGUGAGGAAGGCAUGACCUCUGGGCUCUCUAGGUGGCCCUGGUGGAAUUCUCGGGUGCCAA; value = 1.42

Set 2
Target: Transcription factor SOX-2, HMG box (Sox2, Mus musculus, UniProt P48432, residues 41-119)
Sequence of UniProt P48432 (41-119, looked up): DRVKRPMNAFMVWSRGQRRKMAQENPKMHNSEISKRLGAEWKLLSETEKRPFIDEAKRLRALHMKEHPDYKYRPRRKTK
Method: Spec-seq
Form: double-stranded DNA, one strand shown
Medium: in vitro
Concentration: not given
Notes: whole probe, mean of replicates
Relative to: not given
Direction: lower = stronger binding
Measurement: relative binding energy
Constant ends, left off below: GAGTCGTCTCGTCAGCAC … CCGTAGAGCACTCAGGTC
Sequence = ACGTGTT; value = 0.369 ln ratio
Sequence = CATCCAG; value = 0.392 ln ratio
Sequence = CATGCAG; value = 0.0777 ln ratio
Sequence = AGTTGTT; value = -0.94 ln ratio
Sequence = CATGACA; value = 0.286 ln ratio
Sequence = CAACGTT; value = 0.751 ln ratio
Sequence = CATAGTT; value = -0.898 ln ratio
Sequence = CATAGCG; value = -0.309 ln ratio
Sequence = CATGGTG; value = 0.164 ln ratio
Sequence = CATGTGC; value = 0.573 ln ratio
Sequence = CATGCCG; value = 0.626 ln ratio
Sequence = GTGCGTT; value = 1.45 ln ratio
Sequence = GCATGTT; value = 0.53 ln ratio
Sequence = CATTCGT; value = -0.215 ln ratio
Sequence = GGACGTT; value = 1.57 ln ratio
Sequence = CATCCTA; value = 0.671 ln ratio
Sequence = CATTACT; value = -0.268 ln ratio

Set 3
Target: Sal-like protein 4, full length isoform A (SALL4, Homo sapiens, UniProt Q9UJQ4, residues 1-1053)
Sequence of UniProt Q9UJQ4 (whole entry, looked up): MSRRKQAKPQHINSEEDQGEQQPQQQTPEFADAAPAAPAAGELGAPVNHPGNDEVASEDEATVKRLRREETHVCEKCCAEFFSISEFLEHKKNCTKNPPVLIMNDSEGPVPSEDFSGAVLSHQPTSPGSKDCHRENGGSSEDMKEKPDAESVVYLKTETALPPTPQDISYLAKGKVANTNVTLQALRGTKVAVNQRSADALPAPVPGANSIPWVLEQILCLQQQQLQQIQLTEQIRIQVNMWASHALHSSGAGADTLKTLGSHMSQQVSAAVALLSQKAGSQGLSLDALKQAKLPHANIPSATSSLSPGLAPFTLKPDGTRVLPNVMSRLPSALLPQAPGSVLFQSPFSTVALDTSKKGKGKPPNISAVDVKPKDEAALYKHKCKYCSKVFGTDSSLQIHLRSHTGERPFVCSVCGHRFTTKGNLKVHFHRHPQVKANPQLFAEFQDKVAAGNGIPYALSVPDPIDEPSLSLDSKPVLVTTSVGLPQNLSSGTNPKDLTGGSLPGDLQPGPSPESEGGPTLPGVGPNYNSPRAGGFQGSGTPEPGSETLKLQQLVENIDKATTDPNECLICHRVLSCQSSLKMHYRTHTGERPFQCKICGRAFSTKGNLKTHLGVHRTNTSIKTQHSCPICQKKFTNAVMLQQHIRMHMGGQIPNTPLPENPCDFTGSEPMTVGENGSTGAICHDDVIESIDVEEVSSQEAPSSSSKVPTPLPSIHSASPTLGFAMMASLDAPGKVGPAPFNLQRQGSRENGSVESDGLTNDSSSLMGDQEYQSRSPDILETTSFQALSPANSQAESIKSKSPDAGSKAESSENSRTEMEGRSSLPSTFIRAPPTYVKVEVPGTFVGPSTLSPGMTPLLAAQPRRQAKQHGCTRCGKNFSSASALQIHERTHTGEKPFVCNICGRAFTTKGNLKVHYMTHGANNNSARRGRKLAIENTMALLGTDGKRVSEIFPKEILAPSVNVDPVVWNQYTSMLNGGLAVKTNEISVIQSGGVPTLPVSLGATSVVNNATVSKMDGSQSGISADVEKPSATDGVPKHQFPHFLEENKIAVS
Method: universal PBM
Form: double-stranded DNA, one strand shown
Medium: in vitro
Concentration: 600 nM
Notes: 8-mer, flanks averaged, mean of replicates
Direction: higher = stronger binding
Measurement: E-score
Sequence = CAAGCGCA; value = 0.0291
Sequence = CATATGCC; value = 0.0798
Sequence = ATGATGGG; value = 0.0221
Sequence = GGTGCTGA; value = -0.301
Sequence = AAGCTGCG; value = -0.241
Sequence = AACGCGAT; value = -0.0954
Sequence = AAACGGGC; value = -0.134
Sequence = AGTCACCG; value = -0.344
Sequence = AGGGGGAC; value = -0.335
Sequence = CACCTAGA; value = -0.175
Sequence = AAGGCGAG; value = -0.194
Sequence = GGTTCGGA; value = -0.226
Sequence = CATTTAGA; value = 0.155
Sequence = AATCACCC; value = -0.0146
Sequence = ATCGACAT; value = 0.181
Sequence = AGTCCTCG; value = -0.231
Sequence = GTCGAATA; value = 0.21
Sequence = GGTTAGCA; value = -0.0857

Set 4
Target: Histone acetyltransferase KAT6A, winged helix 2, GST fusion (KAT6A, Homo sapiens, UniProt Q92794, residues 85-181)
Method: protein binding microarray
Form: double-stranded DNA, one strand shown
Medium: in vitro
Concentration: not given
Notes: 8-mer, flanks averaged, mean of 2 arrays, mostly near background
Relative to: not given
Direction: higher = stronger binding
Measurement: E-score
Residues (chain): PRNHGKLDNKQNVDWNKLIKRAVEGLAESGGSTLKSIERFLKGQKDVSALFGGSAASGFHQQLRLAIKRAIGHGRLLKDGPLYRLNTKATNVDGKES
Sequence = CTGTCACA; value = -0.0402
Sequence = AGGGTATC; value = -0.072
Sequence = CCGGGGGA; value = 0.163
Sequence = CCCCACCC; value = 0.145
Sequence = GCGAGCGC; value = 0.175
Sequence = GTCGGGGA; value = 0.0706
Sequence = AGTGTAAA; value = -0.0482
Sequence = AACCGCCA; value = -0.00959
Sequence = GCGTTCCA; value = 0.0246
Sequence = TAGCACAA; value = 0.0792
Sequence = CTCCACCC; value = 0.131
Sequence = TCGAGCAA; value = 0.235
Sequence = ATTGTTGG; value = 0.0907
Sequence = CCAGACGG; value = 0.0817
Sequence = CAATCTTA; value = 0.00492
Sequence = ATGTCGTG; value = 0.111
Sequence = ATAACCTA; value = -0.112
Sequence = GATCCTTA; value = -0.215

Set 5
Target: PABPC1L2, full length, GST fusion (mouse, UniProt A0ABA7IW68)
Method: RNAcompete
Form: RNA
Medium: in vitro
Concentration: 20 nM
Notes: 7-mer, probes averaged, single round
Relative to: mean of 7-mers
Direction: higher = stronger binding
Measurement: 7-mer Z-score
Target sequence (chain): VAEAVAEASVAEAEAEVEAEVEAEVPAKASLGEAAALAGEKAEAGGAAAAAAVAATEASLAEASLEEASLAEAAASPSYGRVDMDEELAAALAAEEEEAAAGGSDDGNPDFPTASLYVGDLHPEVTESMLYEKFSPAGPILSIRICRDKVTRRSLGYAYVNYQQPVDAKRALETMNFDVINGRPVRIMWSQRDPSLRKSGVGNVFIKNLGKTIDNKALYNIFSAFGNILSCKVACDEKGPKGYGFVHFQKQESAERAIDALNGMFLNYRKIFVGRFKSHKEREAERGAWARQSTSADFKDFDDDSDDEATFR
Sequence = AGACUAU; value = -0.249
Sequence = GGAGAAC; value = 0.289
Sequence = GAACUCG; value = -0.179
Sequence = UACUGCA; value = -0.124
Sequence = UAACGUC; value = -0.396
Sequence = GGGUCAU; value = 0.137
Sequence = AUACAGA; value = 0.129
Sequence = GGGAAAA; value = 3.2
Sequence = GGAUGCC; value = 0.0134
Sequence = UCUGCCC; value = -0.322
Sequence = GCCCUGA; value = -0.273
Sequence = GUUAAGA; value = 0.0569
Sequence = CGACGGC; value = 0.037
Sequence = GACGCCU; value = -0.28
Sequence = UUUGAGC; value = -0.298
Sequence = UAUCGUG; value = -0.267
Sequence = UGGAUCG; value = 0.0189
Sequence = GCUGCAA; value = 0.0805
Sequence = UGCCUCU; value = -0.36
Sequence = AGCAUUC; value = -0.161
Sequence = CCCAGAG; value = -0.0953

A few entries again (set 3):
Sequence = CACCTAGA; value = -0.175
Sequence = AAGGCGAG; value = -0.194
Sequence = GGTTCGGA; value = -0.226
Sequence = CATTTAGA; value = 0.155
Sequence = AATCACCC; value = -0.0146
